Values quoted from earlier work as cited in several papers.
Lines come from different studies, so protocols differ. ± gives the spread as reported.

Cc1cc(N2CC[C@@](C#N)(C3(C)CC3)C2=O)cc(C(=O)NCc2cc(F)cc(-c3cnn(C)c3)c2)n1 gave an EC50 of 27 nM (Toxoplasma gondii; wild type).
For COc1ccc(NC(=O)N2CCCCN3[C@H](CN(C)C)[C@H](c4ccc(C#Cc5ccccc5)cc4)[C@@H]3C2)cc1, the EC50 was 53 nM (Toxoplasma gondii; parasite growth; RH-FLuc).
CCOP(=O)(CCCn1cc(Cn2c(=O)n(C(=O)c3ccccc3)c(=O)c3ccccc32)nn1)OCC has an EC50 of 17000 nM (human alphaherpesvirus 2; viral replication).
The EC50 of O=C(Nc1ccc2sc(-c3ccc(F)c(F)c3)nc2c1)N1CC[C@H](F)C1 is reported as 30 nM (Trypanosoma brucei).
CNS(=O)(=O)c1sc(N(C)C(=O)Nc2ccc(-c3ccccc3)cc2)nc1C gave an EC50 of 5 nM (herpes simplex virus 2; viral replication).
For CC(C)c1ccc(O)c(=O)c(O)c1, the EC50 was 1000 nM (hepatitis B virus; viral replication).
The EC50 of CN(C(=O)Nc1ccc(N2CCOCC2)cc1)c1nc(Cl)c(S(=O)(=O)N(C)C)s1 is reported as 700 nM (herpes simplex virus 2; viral replication).
Cc1cc(/C=C/C#N)cc(C)c1Nc1nc(Nc2ccc(C#N)cc2)ncc1N gave an EC50 of 0.5 ± 0.1 nM (HIV-1 wild type; viral replication, single-round infection).
For O=C(CCC(CCC(=O)N[C@@H](Cc1ccc(O)cc1)C(=O)O)(CCC(=O)N[C@@H](Cc1ccc(O)cc1)C(=O)O)NC(=O)CCOCC(COCCC(=O)NC(CCC(=O)N[C@@H](Cc1ccc(O)cc1)C(=O)O)(CCC(=O)N[C@@H](Cc1ccc(O)cc1)C(=O)O)CCC(=O)N[C@@H](Cc1ccc(O)cc1)C(=O)O)(COCCC(=O)NC(CCC(=O)N[C@@H](Cc1ccc(O)cc1)C(=O)O)(CCC(=O)N[C@@H](Cc1ccc(O)cc1)C(=O)O)CCC(=O)N[C@@H](Cc1ccc(O)cc1)C(=O)O)COCCC(=O)NC(CCC(=O)N[C@@H](Cc1ccc(O)cc1)C(=O)O)(CCC(=O)N[C@@H](Cc1ccc(O)cc1)C(=O)O)CCC(=O)N[C@@H](Cc1ccc(O)cc1)C(=O)O)N[C@@H](Cc1ccc(O)cc1)C(=O)O, the EC50 was 20000 ± 15000 nM (HIV-2; viral cytopathicity; MT-4, ROD).
For CNC(=O)C(Cc1ccccc1)NC(=O)C(O)(Cc1ccccc1)CN(Cc1ccc(Br)cc1)NC(=O)C(NC(=O)OC)C(C)(C)C (stereo not shown), the EC50 was > 10000 nM (HIV-1; viral replication; MT-4).
Cc1cn(C2C=CC(COP(=O)(O)OP(=O)(O)OP(=O)(O)O)O2)c(=O)[nH]c1=O (stereo not shown) has an EC50 of > 100000 nM (HIV-2; viral replication; CEM/TK− (thymidine kinase-deficient)).
With Cc1nc(N(C)C(=O)Nc2ccc(-c3ccccc3)cc2)sc1S(=O)(=O)NC1CC1 the EC50 was 20 nM (herpes simplex virus 1; viral replication).
COCCCNC(=O)c1ccc(Cn2c(=O)c3ccccc3n(Cc3ccc(C)cc3)c2=O)cc1 has an EC50 of 2140 nM (respiratory syncytial virus; cytopathic effect).
The EC50 of Cc1nc(N(C)C(=O)Cc2ccc(-c3cccnc3)cc2)sc1S(N)(=O)=O is reported as 5 nM (herpes simplex virus 2; viral replication).
With Cc1cc(O)c(=O)c(O)cc1C(=O)c1ccc2ccc3cccc4ccc1c2c34 the EC50 was 60 nM (herpes simplex virus; viral replication).
The EC50 of Cc1nc(N(C)C(=O)Cc2ccc(-c3ccccc3)cc2)sc1S(=O)(=O)NCCO is reported as 5 nM (herpes simplex virus 2; viral replication).
The EC50 of CN1CCN(c2ccc(-c3cc(-c4ccc(C5NC(=O)c6ccccc6N5)cc4)nc(N)n3)cc2)CC1 (stereo not shown) is reported as 650 nM (Leishmania donovani; intracellular amastigotes).
Cc1nc(N(C)C(=O)Cc2ccc(-c3ccccc3)cc2)sc1S(=O)(=O)NCCN has an EC50 of 100 nM (herpes simplex virus 1; viral replication).
Oc1ccccc1/C=N/c1sc2c(c1-c1nc3ccccc3s1)CCCC2 has an EC50 of 10.8 µg/mL (human adenovirus 7; antiviral activity).

Repeated from above:
The EC50 of CN1CCN(c2ccc(-c3cc(-c4ccc(C5NC(=O)c6ccccc6N5)cc4)nc(N)n3)cc2)CC1 (stereo not shown) is reported as 650 nM (Leishmania donovani; intracellular amastigotes).
Cc1nc(N(C)C(=O)Cc2ccc(-c3ccccc3)cc2)sc1S(=O)(=O)NCCN has an EC50 of 100 nM (herpes simplex virus 1; viral replication).
